Assay results of several laboratories.
Each line is one published result; not all experiments were run side by side. Values joined by “and” are separate records of one study, mostly repeats; a detail may differ. Numbers after ± are the reported error.

Structure (SMILES)	target or system	assay	test system	setting	scale	quantity	value
CC(CCC(=O)[O][Pt]([NH2])([NH2])([OH])([Cl])[Cl])C1CCC2C3CCC4CC(O)CCC4(C)C3CCC12C (stereo not shown)	RWPE-1 normal prostate	cell viability, MTT	–	72 h	–	IC50	10.1 ± 0.5 µM
CC(=O)NCCOCCNC(=O)c1cc(C(=O)N2CCNCCNCCNCC2)c(O)c(C(=O)N2CCNCCNCCNCC2)c1	PK-59	cell growth or viability, MTT	–	24 h	–	IC50	> 1000 µM
CC(C)=CC1OC(C)(C)C2C=C3C(=O)C(Cl)=CC(O)C3C3C(O)C4OC4C(=O)C132 (stereo not shown)	HEL	cell growth or viability, MTS	–	–	–	IC50	1.41 µM
CCOc1cncc(-c2ccc(NC(=O)C3(c4ccnc(NS(=O)(=O)C5CC5)n4)CCOCC3)nc2)n1	lung cancer	cell viability, CellTiter-Glo	DMSO 0.1%	72 h, line code 586	–	IC50	6.65 µM
CNS(=O)(=O)Nc1nccc(Cc2c(C)c3ccc(Oc4ncccc4F)cc3oc2=O)c1F	NCI-H1648	cell viability	–	7 days	–	IC50	0.0185 µM
CC(C)CC(OC1OC(CO)C(O)C(OC(=O)C=Cc2ccccc2)C1O)(C(=O)OCc1ccc(OC2OC(CO)C(O)C(O)C2O)cc1)C(O)C(=O)OCc1ccc(OC2OC(CO)C(O)C(O)C2O)cc1 (stereo not shown)	T47D breast cancer	cell viability, MTT	DMEM with 10% FBS	48 h	–	IC50	> 200 µM
CCCCCCCCCCCC(=O)Oc1c(C)c(OC)c2c(c1C)OC(=O)[C@@H](CCCCCCCCCC)[C@]2(O)/C=C/c1ccccc1 (relative stereo)	FaDu	cell growth or viability, SRB	–	72 h	–	IC50	> 50 µM
COc1cc(-c2cn(C)c(=O)c3cnccc23)c(OC)cc1CN(C)C	Kasumi 1	cell growth or viability, ATP luminescence	–	–	–	IC50	10 µM
CN1CCCNC(=O)c2cccc(c2)C(=O)NCCCN(C)CCCNc2cccc3c2C(=O)c2cccc(c2C3=O)NCCC1	SAS	RNA-Seq, item: INPP4A mRNA	–	1 µM, 6 h	relative to: untreated cells	log2 fold change	-0.701
C1=[N+]2CCCC[N+]3=Cc4ccc5[n]4[Au-]23[n]2c1ccc2-c1nc2ccccc2nc1-5.F[P-](F)(F)(F)(F)F	BT-549	–	–	NCI60 five-dose screen	–	IC50	3.5 µM
CC1(C)CC(=O)C2=C(C1)Oc1ccccc1C2Sc1ccccc1 (stereo not shown)	3T3-L1	cell growth or viability, MTT	–	72 h	–	IC50	80.7 µg/mL
O=C(CCC(=O)Nc1ccc(Cl)cc1Cl)N/N=C/c1ccc([N+](=O)[O-])o1	Trypanosoma cruzi	reporter mRNA translation, inhibitor, item: Renilla luciferase mRNA	cell-free extract	concentration not given, test 3	relative to: positive over negative control	translation activity	79.6%
O=C(Nc1ccc(OCc2ccccc2)cc1)OCCn1ncc2ccccc2c1=O	HEK293 reporter cells	γ-carboxylation, reporter	–	together with: vitamin K 10 µM	–	IC50	0.546 µM
CN(C)c1ccc(/C=C/c2cc(/C=C3\Sc4ccccc4N3CCCN3CCCC3)c3ccccc3[n+]2C)cc1	HK-2	cell growth or viability, MTT	–	36 h	–	IC50	10.4 µM
C=C1C(=O)OC2C1CCC(C)(O)C13C=CC(C)(C21)C1(C3)C(=O)OC2C3C(C)C(=O)CC3C(=C)CC(OC(=O)C(C)=CC)C21 (stereo not shown)	AML12	lipid accumulation, Nile Red staining	–	together with: palmitate/oleate	–	IC50	8.43 ± 1.21 µM
CCCCCCCCCCCC(=O)Oc1c(C)c(OC)c2c(/C=C/c3ccccc3)c(CCCCCCCCCC)c(=O)oc2c1C	FaDu	cell growth or viability, SRB	–	72 h	–	IC50	> 50 µM
Cn1ncc(-c2ccc3c(=O)[nH]nc(CN)c3c2)c1-c1c(F)c(Cl)cc(OC2CC2)c1C#N	KYSE-70	cell viability, inhibitor, CellTiter-Glo	–	120 h, baseline-subtracted	–	IC50	2.12 µM
O=C1CCC(N2C(=O)c3ccc(N4CC(C(=O)N5CC(CN6CCC(CNC(=O)c7cccc(-c8noc(C(F)(F)F)n8)c7)(c7nc(-c8ccccc8)cs7)CC6)C5)C4)cc3C2=O)C(=O)N1 (stereo not shown)	JeKo-1 CRBN knockout	cell proliferation	–	168 h	–	IC50	7 ± 2.29 µM
NC(=O)c1ccc(-c2ccccc2Cl)c2c3c([nH]c12)CC[C@@H](N)C3	BGC-823	cell growth or viability	–	–	–	IC50	0.0285 µM

Structure (SMILES)	target or system	assay	test system	setting	scale	quantity	value
Nc1ncc(-c2cc(-c3cnn(CC(F)(F)F)c3)ncc2F)nc1C(=O)NC1CNCC(F)C1 (stereo not shown)	EPHB3	KINOMEscan	–	1 µM	relative to: DMSO control	remaining binding	94%
C=CC(=O)N1CCCC(n2c(=O)c3ncccc3n(Cc3ccc(Oc4ccccc4)cc3)c2=O)C1 (stereo not shown)	OCI-Ly8	cell growth or viability, MTT	–	72 h	–	IC50	0.3 µM
CCCCCCCCCCCCSCC(COCC(O)C[N+](C)(C)C)SCCCCCCCCCCCC (stereo not shown)	BHK-21	cell growth or viability, MTT	–	–	–	IC50	110 µM
CC(C)c1ccc(N(C)c2ccc3c(c2)OCC[C@H]3CNc2cnccc2C(=O)O)cc1	SNUC2A	cell viability, CellTiter-Glo	large intestine	7 days	–	IC50	0.0525 µM
COC1CN([C@H]2CC[C@H]([C@@]3(C)Oc4c(Cl)cc(C(=O)NCc5c(SC)cc(C)[nH]c5=O)c(C)c4O3)CC2)C1	–	RNA-seq, item: PLEKHH2	human, whole blood	dose not given, 24 h	relative to: pretreatment baseline	log2 fold change	2.82
CC[C@@H](C)[C@@H](NC(=O)[C@@H](C)NC(=O)[C@H](N)Cc1c[nH]cn1)C(=O)N[C@H](Cc1ccc(O)cc1)C(=O)N1CCC[C@@H]1C(=O)N[C@H](CCCNC(=N)N)C(=O)N[C@H](Cc1c[nH]cn1)C(=O)N[C@H](CO)C(=O)N[C@H](Cc1c[nH]c2ccccc12)C(=O)N[C@@H](C(=O)N[C@H](Cc1c[nH]c2ccccc12)C(=O)N[C@H](CCC(=O)O)C(=O)N[C@H](CCCCN)C(=O)N[C@H](CCCCN)C(=O)N[C@H](CC(C)C)C(=O)N[C@H](CCC(=O)O)C(=O)N[C@@H](C(=O)N[C@H](C)C(=O)N[C@@H](C(=O)N[C@H](CC(N)=O)C(=O)N[C@H](CC(C)C)C(=O)N[C@H](C)C(=O)N[C@H](Cc1c[nH]c2ccccc12)C(=O)N[C@@H](C(=O)N[C@H](C)C(=O)NCC(=O)N[C@H](CC(N)=O)C(=O)N[C@H](CO)C(=O)N[C@H](CC(N)=O)C(=O)N[C@H](CCCCN)C(=O)N[C@H](Cc1c[nH]c2ccccc12)C(=O)N[C@@H](C(=O)N[C@H](Cc1c[nH]c2ccccc12)C(=O)N[C@H](CCCCN)C(=O)O)[C@H](C)O)[C@H](C)O)C(C)C)[C@H](C)O)[C@H](C)O	MEC1	cell growth or viability, flow cytometry	–	90 min	–	IC50	5 µM
CC[C@H]1CC[C@H]2[C@@H]3C[C@@H](O)[C@@]4(O)C[C@H](N)CC[C@]4(C)[C@H]3CC[C@]12C	HMC3	cell growth or viability, imaging	–	–	–	IC50	1.02 µM
O=C(O)CCc1ccc2c(c1)c(CCc1ccccc1)cn2-c1ccc(Oc2ccccc2)cc1	BV-2	PGE2 release, inhibitor	–	LPS-stimulated	–	IC50	0.04 µM
C=CC(=O)Nc1cccc(Cn2ncc3cnc(Nc4cnn(CCOC)c4)nc32)c1	human TRKC	KINOMEscan	–	100 nM	relative to: control	binding	70%
CC1CCC(C(C)C)C(OC(=O)Cn2c(-c3ccc(Br)cc3)[n+](C)c3ccccc32)C1.[Cl-] (stereo not shown)	Trypanosoma cruzi	reporter mRNA translation, inhibitor, item: Renilla luciferase mRNA	cell-free extract	concentration not given, test 1	relative to: positive over negative control	translation activity	82.3% and 74.3%
CN(C)Cc1nc(Nc2ccc(-c3cnc4cc(F)ccn34)c3c2C(=O)NC3)ccc1C1CCOC1 (stereo not shown)	human B cells	western blot, item: BLNK phosphorylation	–	together with: anti-IgM	–	IC50	0.048 µM
N#Cc1c(N)nc2c(c1-c1ccc(CO)o1)Cc1cccc(O)c1-2	HBP-ALL	cell viability, CellTiter-Glo	–	–	no inhibition at 100 µM	IC50	> 100 µM
CCCCCCCC(=O)Oc1c(C)c(OC)c2c(/C=C/c3ccccc3)c(CCCCCC)c(=O)oc2c1C	FaDu	cell growth or viability, SRB	–	72 h	–	IC50	> 50 µM
Cc1ncsc1-c1ccc(C(C)NC(=O)C2CC(O)CN2C(=O)C(NC(=O)CCCCCCCCCCN2CCCC(Nc3ncc(Cl)c(Nc4ccccc4S(=O)(=O)C(C)C)n3)C2)C(C)(C)C)cc1 (stereo not shown)	22Rv1	RNA-seq, item: MAP3K14 mRNA	–	concentration not given	relative to: DMSO	log2 fold change	-1.14
CCCC(=O)[O][Pt]([Cl])([Cl])[O]C(=O)CCC.N.N	A549/DDP cisplatin-resistant	MTT	–	48 h, together with: survivin siRNA 10 nM transfected 24 h before	–	IC50	13.5 ± 4.03 µM
CC1(C)CC(=O)C2=C(C1)Oc1ccc3ccccc3c1C2n1nnc2ccccc21 (stereo not shown)	3T3-L1	cell growth or viability, MTT	–	72 h	–	IC50	61.4 µg/mL
N#Cc1c(N)nc2c(c1-c1ccccc1)Cc1cc(O)ccc1-2	HBP-ALL	cell viability, CellTiter-Glo	–	–	no inhibition at 100 µM	IC50	20.2 µM
CCCCCCCC(=O)[O][Pt]([Cl])([Cl])[O]C(=O)CCCCCCC.N.N	A549/DDP cisplatin-resistant	MTT	–	48 h, non-transfected	–	IC50	3.32 ± 2.27 µM

Some of these lines once more:
Structure (SMILES)	target or system	assay	test system	setting	scale	quantity	value
O=C(CCC(=O)Nc1ccc(Cl)cc1Cl)N/N=C/c1ccc([N+](=O)[O-])o1	Trypanosoma cruzi	reporter mRNA translation, inhibitor, item: Renilla luciferase mRNA	cell-free extract	concentration not given, test 3	relative to: positive over negative control	translation activity	79.6%
NC(=O)c1ccc(-c2ccccc2Cl)c2c3c([nH]c12)CC[C@@H](N)C3	BGC-823	cell growth or viability	–	–	–	IC50	0.0285 µM
CC(C)=CC1OC(C)(C)C2C=C3C(=O)C(Cl)=CC(O)C3C3C(O)C4OC4C(=O)C132 (stereo not shown)	HEL	cell growth or viability, MTS	–	–	–	IC50	1.41 µM
CC(=O)NCCOCCNC(=O)c1cc(C(=O)N2CCNCCNCCNCC2)c(O)c(C(=O)N2CCNCCNCCNCC2)c1	PK-59	cell growth or viability, MTT	–	24 h	–	IC50	> 1000 µM
C=C1C(=O)OC2C1CCC(C)(O)C13C=CC(C)(C21)C1(C3)C(=O)OC2C3C(C)C(=O)CC3C(=C)CC(OC(=O)C(C)=CC)C21 (stereo not shown)	AML12	lipid accumulation, Nile Red staining	–	together with: palmitate/oleate	–	IC50	8.43 ± 1.21 µM
O=C(O)CCc1ccc2c(c1)c(CCc1ccccc1)cn2-c1ccc(Oc2ccccc2)cc1	BV-2	PGE2 release, inhibitor	–	LPS-stimulated	–	IC50	0.04 µM
